# Measured values pooled from the literature.
# Every numbered part comes from another study and shows a few of its results, in no order.
# UniProt Q6PHR2, sequence (whole entry, looked up): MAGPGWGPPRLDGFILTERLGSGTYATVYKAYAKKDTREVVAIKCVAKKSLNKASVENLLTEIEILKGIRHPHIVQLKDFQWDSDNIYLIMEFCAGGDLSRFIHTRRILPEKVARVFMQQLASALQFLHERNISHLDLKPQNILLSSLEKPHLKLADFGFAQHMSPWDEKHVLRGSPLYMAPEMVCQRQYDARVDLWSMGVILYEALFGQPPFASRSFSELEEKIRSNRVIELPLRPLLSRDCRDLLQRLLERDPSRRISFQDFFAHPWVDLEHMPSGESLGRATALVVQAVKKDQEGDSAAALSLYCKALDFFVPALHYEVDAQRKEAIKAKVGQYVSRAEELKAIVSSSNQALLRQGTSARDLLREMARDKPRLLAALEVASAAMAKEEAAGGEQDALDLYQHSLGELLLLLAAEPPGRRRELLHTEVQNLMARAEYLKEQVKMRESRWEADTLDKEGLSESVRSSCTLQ
# UniProt P08172, sequence (whole entry, looked up): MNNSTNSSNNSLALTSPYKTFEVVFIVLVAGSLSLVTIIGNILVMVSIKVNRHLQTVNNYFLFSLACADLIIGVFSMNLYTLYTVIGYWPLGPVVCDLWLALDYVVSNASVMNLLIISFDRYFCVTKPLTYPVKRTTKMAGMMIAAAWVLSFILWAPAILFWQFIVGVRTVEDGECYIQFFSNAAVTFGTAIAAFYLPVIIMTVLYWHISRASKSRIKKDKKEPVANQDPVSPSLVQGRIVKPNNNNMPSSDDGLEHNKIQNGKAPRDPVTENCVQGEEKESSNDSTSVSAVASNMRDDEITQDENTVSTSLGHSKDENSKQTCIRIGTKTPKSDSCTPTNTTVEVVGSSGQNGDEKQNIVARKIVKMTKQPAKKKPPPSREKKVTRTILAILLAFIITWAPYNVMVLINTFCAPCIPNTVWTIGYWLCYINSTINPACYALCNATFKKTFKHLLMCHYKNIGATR
# UniProt Q99759, sequence (whole entry, looked up): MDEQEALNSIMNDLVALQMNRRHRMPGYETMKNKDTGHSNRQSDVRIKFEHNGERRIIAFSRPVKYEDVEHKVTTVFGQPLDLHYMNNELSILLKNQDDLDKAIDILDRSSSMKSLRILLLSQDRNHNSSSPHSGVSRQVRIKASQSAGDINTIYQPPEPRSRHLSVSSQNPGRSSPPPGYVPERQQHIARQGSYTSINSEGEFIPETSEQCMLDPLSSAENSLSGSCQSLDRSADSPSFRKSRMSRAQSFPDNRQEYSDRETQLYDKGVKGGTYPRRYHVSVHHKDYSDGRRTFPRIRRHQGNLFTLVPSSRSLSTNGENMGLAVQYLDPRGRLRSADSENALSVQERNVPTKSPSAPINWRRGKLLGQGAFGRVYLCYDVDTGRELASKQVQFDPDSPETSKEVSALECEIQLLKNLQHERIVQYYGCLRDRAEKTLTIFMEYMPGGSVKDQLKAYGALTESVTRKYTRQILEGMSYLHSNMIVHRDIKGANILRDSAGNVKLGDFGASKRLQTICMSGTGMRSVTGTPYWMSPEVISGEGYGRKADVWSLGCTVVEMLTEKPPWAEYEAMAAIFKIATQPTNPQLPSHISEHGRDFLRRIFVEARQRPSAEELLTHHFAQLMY
# UniProt P35368, sequence (whole entry, looked up): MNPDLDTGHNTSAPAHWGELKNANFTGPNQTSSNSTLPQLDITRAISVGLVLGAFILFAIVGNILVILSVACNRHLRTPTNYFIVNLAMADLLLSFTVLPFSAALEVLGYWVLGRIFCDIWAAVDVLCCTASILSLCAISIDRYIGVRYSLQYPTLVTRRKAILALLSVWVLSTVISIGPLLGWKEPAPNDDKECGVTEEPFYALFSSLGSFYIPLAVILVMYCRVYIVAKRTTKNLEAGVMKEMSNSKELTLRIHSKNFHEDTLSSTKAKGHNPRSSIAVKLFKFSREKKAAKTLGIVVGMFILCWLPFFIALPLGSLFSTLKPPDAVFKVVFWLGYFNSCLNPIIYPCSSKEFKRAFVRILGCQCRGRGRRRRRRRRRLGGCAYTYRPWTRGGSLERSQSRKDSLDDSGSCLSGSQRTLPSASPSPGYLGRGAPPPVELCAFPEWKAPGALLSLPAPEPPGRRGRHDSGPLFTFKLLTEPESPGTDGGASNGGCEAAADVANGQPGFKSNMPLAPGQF
# UniProt O95382, sequence (whole entry, looked up): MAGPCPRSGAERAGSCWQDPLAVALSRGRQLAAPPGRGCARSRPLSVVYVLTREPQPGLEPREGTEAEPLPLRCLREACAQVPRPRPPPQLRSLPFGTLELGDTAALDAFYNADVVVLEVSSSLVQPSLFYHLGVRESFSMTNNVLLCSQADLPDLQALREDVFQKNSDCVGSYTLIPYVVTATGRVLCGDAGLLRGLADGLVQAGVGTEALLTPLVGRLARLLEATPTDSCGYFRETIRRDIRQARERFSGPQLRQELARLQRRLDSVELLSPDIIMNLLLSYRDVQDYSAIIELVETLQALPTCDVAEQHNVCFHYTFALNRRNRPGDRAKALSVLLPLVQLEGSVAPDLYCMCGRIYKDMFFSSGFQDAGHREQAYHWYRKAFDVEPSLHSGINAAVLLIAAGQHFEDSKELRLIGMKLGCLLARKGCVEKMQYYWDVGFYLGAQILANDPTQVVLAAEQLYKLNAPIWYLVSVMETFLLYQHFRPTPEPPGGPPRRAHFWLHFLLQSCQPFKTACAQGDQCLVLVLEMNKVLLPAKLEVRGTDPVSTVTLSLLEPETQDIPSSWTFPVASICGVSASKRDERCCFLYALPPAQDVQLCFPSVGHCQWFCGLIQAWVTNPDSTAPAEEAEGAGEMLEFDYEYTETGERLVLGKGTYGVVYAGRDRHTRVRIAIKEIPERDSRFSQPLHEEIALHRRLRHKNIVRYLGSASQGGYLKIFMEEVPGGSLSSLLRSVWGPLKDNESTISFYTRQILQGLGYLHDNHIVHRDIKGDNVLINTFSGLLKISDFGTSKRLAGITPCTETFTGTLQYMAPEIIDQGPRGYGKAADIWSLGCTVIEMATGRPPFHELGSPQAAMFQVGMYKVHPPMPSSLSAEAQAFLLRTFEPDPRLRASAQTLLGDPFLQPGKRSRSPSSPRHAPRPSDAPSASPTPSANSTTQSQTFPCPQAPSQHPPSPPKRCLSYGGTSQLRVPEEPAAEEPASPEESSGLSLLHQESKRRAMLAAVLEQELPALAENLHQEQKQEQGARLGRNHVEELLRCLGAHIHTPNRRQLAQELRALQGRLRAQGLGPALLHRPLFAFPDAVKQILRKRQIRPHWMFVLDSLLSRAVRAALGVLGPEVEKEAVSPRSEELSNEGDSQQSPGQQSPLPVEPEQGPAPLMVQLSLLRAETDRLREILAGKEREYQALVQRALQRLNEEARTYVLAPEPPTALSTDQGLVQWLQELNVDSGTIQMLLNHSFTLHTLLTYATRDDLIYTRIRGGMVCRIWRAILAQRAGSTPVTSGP
# UniProt Q99720, sequence (whole entry, looked up): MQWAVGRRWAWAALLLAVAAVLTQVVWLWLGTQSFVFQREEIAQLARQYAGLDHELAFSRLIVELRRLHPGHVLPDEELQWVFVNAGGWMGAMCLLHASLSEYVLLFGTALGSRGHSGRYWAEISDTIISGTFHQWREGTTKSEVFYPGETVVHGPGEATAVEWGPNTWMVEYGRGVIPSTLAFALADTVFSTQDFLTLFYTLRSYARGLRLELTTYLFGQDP
# UniProt P07550, sequence (whole entry, looked up): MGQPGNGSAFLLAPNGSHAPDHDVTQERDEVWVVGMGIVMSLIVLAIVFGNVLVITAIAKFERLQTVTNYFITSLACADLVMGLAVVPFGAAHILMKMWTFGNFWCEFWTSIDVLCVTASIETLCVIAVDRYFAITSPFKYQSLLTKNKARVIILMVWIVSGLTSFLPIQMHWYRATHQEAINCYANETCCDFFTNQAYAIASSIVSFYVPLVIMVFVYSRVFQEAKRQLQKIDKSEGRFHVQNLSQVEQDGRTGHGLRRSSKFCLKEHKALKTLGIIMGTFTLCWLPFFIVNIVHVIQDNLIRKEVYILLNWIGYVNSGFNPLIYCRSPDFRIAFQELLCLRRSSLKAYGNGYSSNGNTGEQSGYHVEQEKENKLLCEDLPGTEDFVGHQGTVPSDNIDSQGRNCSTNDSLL

# Study 1
# Compound: CN1CCN(C(=O)c2ccc(NC(=O)Nc3ccc(N(C)c4ccnc(Nc5ccc(CS(C)(=O)=O)cc5)n4)cc3)cc2)CC1
# Method: competitive binding panel
# Tested at: 1 µM
# Relative to: vehicle
target,test,remaining binding
"ABL1 (Homo sapiens, UniProt P00519, M351T)",,20%
"ULK3 (Homo sapiens, UniProt Q6PHR2)",,7.6%
"PRKCH (Homo sapiens, UniProt P24723)",,100%
"GRK3 (Homo sapiens, UniProt P35626)",,97%
"MAP3K3 (Homo sapiens, UniProt Q99759)",,57%
"BMPR1A (Homo sapiens, UniProt P36894)",,32%
"MAP3K6 (Homo sapiens, UniProt O95382)",measured: ASK2,67%

# Study 2
# Compound: O=C(NCc1ncc(C(F)(F)F)cc1Cl)c1ccc2c(c1)C1(CCS(=O)(=O)CC1)[C@@H](C1CC1)N2S(=O)(=O)c1ccc(F)cc1
# Observed: ligand displacement
# Tested at: 10 µM
target,inhibition
"CHRM2 (Homo sapiens, UniProt P08172)",12.5%
"ADRA1B (Homo sapiens, UniProt P35368)",-8.58%
"ADRA1D (Homo sapiens, UniProt P25100)",-3.69%
"HRH4 (Homo sapiens, UniProt Q9H3N8)",-6.68%
"SIGMAR1 (Homo sapiens, UniProt Q99720)",37.6%
"DRD4 (Homo sapiens, UniProt P21917)",-5.22%
"ADRB2 (Homo sapiens, UniProt P07550)",-16.2%

# Study 3
# Target: Serine/threonine-protein kinase N2 (PKN2, Homo sapiens, UniProt Q16513)
# UniProt Q16513, sequence (whole entry, looked up): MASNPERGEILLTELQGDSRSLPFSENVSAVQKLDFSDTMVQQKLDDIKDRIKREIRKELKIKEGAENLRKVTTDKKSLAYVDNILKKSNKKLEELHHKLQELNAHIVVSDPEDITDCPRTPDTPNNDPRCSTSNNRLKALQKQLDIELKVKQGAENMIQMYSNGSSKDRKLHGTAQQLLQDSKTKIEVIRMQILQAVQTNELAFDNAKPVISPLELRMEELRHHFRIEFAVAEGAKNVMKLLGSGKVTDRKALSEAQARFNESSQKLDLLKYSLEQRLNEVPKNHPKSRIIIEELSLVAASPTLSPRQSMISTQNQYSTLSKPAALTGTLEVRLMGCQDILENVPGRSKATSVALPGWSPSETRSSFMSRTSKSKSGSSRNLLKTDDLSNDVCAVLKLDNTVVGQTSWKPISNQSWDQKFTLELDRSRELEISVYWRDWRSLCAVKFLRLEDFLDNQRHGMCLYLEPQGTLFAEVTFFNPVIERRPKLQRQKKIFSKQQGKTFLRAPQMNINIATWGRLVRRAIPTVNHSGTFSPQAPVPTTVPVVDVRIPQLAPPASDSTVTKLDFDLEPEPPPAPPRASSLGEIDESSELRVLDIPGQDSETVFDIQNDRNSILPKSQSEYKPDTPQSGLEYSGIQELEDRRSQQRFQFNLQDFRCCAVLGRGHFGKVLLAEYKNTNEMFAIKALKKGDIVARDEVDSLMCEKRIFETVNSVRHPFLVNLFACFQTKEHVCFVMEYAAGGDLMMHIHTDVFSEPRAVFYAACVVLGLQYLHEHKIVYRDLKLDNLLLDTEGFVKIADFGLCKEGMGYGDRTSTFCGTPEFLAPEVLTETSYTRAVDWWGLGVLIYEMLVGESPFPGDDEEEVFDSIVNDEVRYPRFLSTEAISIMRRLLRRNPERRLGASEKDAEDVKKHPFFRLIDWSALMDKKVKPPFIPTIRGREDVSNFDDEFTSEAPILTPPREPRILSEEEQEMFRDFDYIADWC
# Observed: enzyme activity
# Action: inhibitor
# Tested at: 0.5 µM
# Relative to: control
SMILES,remaining activity
NCCNc1ncc(C(N)=O)c(Nc2cccc(C(F)(F)F)c2)n1,89.7%
Nc1ncnc2n[nH]c(Nc3ccc(F)cc3)c12,82%
COc1ccc(C(=O)Nc2sc3c(c2C(N)=O)CCCC3)cc1OC,98.5%
N#CC(C#N)=C(N)/C(C#N)=C/c1ccc(O)cc1,96.9%
COc1cc2ncnc(Nc3ccc(Oc4ccccc4)cc3)c2cc1OC,93.6%
Nc1ccc2ncnc(NCCc3ccc(Oc4ccccc4)cc3)c2c1,89.7%
COc1ccc(CNC(=O)Nc2ncc([N+](=O)[O-])s2)cc1,101%
CN(C)c1ccc(C=C2C(=O)Nc3ccccc32)cc1,98.9%
COc1ccc(OC)c2c(=S)c3ccccc3[nH]c12,105%
O=c1c2ccccc2[nH]c(=S)n1CCN1CCC(=C(c2ccc(F)cc2)c2ccc(F)cc2)CC1,97.2%
Cc1nc(-c2ccccc2)c(-c2ccncc2)o1,93.4%
COc1cc2ncnc(Nc3ccc(F)c(Cl)c3)c2cc1OCCCN1CCOCC1,93.1%
Nc1[nH]nc2nc3ccccc3nc12,98.7%
CC(C)[C@H](CO)Nc1nc(Nc2cc(N)cc(Cl)c2)c2ncn(C(C)C)c2n1,98%
C#Cc1cccc(Nc2ncnc3cc(OCCOC)c(OCCOC)cc23)c1,101%

# Single results of other studies
SMILES,system,conditions,endpoint,value
CC(C)n1cnc(-c2ccc(F)cc2)c1-c1ncc(C(=O)Nc2ccc(N3CCN(C)CC3)cc2)[nH]1,IPF patients,"60 mg once daily, adverse event",abdominal discomfort incidence,0%

# Repeated from above (study 2):
target,inhibition
"ADRB2 (Homo sapiens, UniProt P07550)",-16.2%
"SIGMAR1 (Homo sapiens, UniProt Q99720)",37.6%
"HRH4 (Homo sapiens, UniProt Q9H3N8)",-6.68%
